Assay results of several laboratories.
Protocols differ between the studies behind these lines. Numbers after ± are the reported error.

The half-life of CNCc1ccc(-c2[nH]c3cc(F)cc4c3c2CCNC4=O)cc1 is reported as 9.23 h (human, plasma; oral, 40 mg once daily, steady state, median).
For OC[C@H]1O[C@@H](OCCc2ccc(O)cc2)[C@H](O)[C@@H](O)[C@@H]1O, the half-life was 0.732 h (Balb/c tumour-bearing mice, plasma; oral, 109.2 mg/kg SNZ).
The half-life of C[N+]1(CC(=O)OC2CCCCCCC2)CCCCC1.[I-] is reported as greater than 1 h (metabolic stability; human, liver microsomes; 1 µM, pH 7.4).
The half-life of Cc1nnc(S(=O)(=O)CC(=O)C23CC4CC(CC(C4)C2)C3)s1 is reported as 0.5 to 0.667 h (metabolic stability; human, liver microsomes).
CN1CCN(c2ccc(Nc3ncc4cc(C#N)c(=O)n(C5CCCC5)c4n3)cc2)CC1 has a half-life of 2.3 h (NIH Swiss nude mice, intracerebral U87 tumour, plasma; intravenous, 25 mg/kg, added: gefitinib 200 mg/kg oral 1 h before).
CC(C)Oc1cc(OCCCCCCCCn2ccnc2)ccc1NC(=N)c1ccccn1 has a half-life of 0.867 to 1.13 h (metabolic stability; human, liver microsomes; 3 µM).
N#C[C@@]1(c2ccc3c(N)ncnn23)O[C@H](CO)[C@@H](O)[C@H]1O gave a half-life of 12.2 h (metabolic stability; human, liver microsomes; 1 µM, pH 7.4).
CC1(C)CC[N+](C)(CC(=O)OC2CCCCCCCCCCC2)CC1.[I-] has a half-life of less than 0.0333 h (metabolic stability; human, liver microsomes; 1 µM, pH 7.4).
The half-life of CC[C@H](C)[C@@H]1NC(=O)[C@H](Cc2ccc(O)cc2)NC(=O)[C@@H](N)CSSC[C@@H](C(=O)N2CCC[C@H]2C(=O)N[C@@H](CC(C)C)C(=O)NCC(N)=O)NC(=O)[C@H](CC(N)=O)NC(=O)[C@H](CCC(N)=O)NC1=O is reported as 0.308 ± 0.0883 h (microdialysis, radioimmunoassay; knock-out male mice lacking compound, hippocampus extracellular fluid; intranasal, 12 µg, time to half of Cmax).
The half-life of CCCCC[N+]1(CC(=O)OC2CCCCCCCCCCC2)CCCCC1.[I-] is reported as less than 0.0333 h (metabolic stability; human, liver microsomes; 1 µM, pH 7.4).
CCCCCCCCCCCCCCCCCCOP(=O)([O-])OC1CC[N+](C)(C)CC1 has a half-life of 277 h (rhesus monkey, male, cerebrospinal fluid; oral, 7 mg/kg, single dose, median of 3).
For CCC[N+]1(CC(=O)OC2CCCCCCCCCCC2)CCCCC1.[I-], the half-life was less than 0.0333 h (metabolic stability; human, liver microsomes; 1 µM, pH 7.4).
For Cn1c(-c2ccc(C(N)=O)cc2F)nnc1C(C)(C)Oc1c(F)cc(Cl)cc1F, the half-life was 15.5 h (elderly non-Japanese subjects, plasma; oral, 20 mg single dose, day 1, median).
